Results collected from several papers.
Each line is one published result; not all experiments were run side by side. Numbers after ± are the reported error.

O=C(O)CCC(=O)O.[2H]C([2H])([2H])Oc1cc(C)c2[nH]ccc2c1CN1CC[C@@H](C2CC2)C[C@H]1c1ccc(C(=O)O)cc1: “subjects with dental ulcer TEAE” 12.5% (multiple ascending dose; healthy Chinese subjects; 200 mg once daily).
With CCOc1c([C@H](C)n2nc(C)c3c(N)ncnc32)cc(Cl)c(F)c1[C@@H]1CNC(=O)C1 the ECG observations was 0% (refers to: QTcF above 500 ms; previously treated B-cell malignancy; oral, 15 mg once daily, baseline QTcF ≤450 ms).
For COc1ccc2[nH]c([S+]([O-])Cc3ncc(C)c(OC)c3C)nc2c1 (stereo not drawn), the Cmax was 239 ± 194 ng/mL (healthy Chinese volunteers, plasma; oral, 20 mg, fed, CYP2C19 normal metabolizers).
For COc1cc(C(=O)NC2CCN(C)CC2)c(F)cc1Nc1ncc(C(F)(F)F)c(Oc2cccc3c2C(=O)N(C)C3)n1, the AUC(0-24) was 13.1 µM·h (human patients; oral, 100 mg, cycle 1 day 1, geometric mean).
With COc1cc2c(c(O)c1OC)C(=O)c1c(cc(C)c(O[C@@H]3O[C@H](CO)[C@@H](O)[C@H](O)[C@H]3O)c1OC)C2=O the cell viability was 81.4 ± 19.9% (HepaRG co-cultured with HK-2; MTT; 66.67 µM, 24 h; baseline: untreated control).
The plasma concentration of O=Cc1cc2c(cc1F)C(=O)N(C1CCC(=O)NC1=O)C2 (stereo not drawn) is reported as 1 ng/mL (cynomolgus monkey, male; oral, 0.3 mg/kg parent drug, 3 h).
C[C@H](NC(=O)/C(C#N)=C/c1cccc(Br)n1)c1ccccc1 has an AUC(all) of 64 ng·h/mL (LC-MS/MS; patients, plasma; oral, 2 mg/kg, cycle 1 day 8).
O=C(O)[C@H]1O[C@@H](Oc2cc(O)cc(/C=C\c3ccc(O)cc3)c2)[C@H](O)[C@@H](O)[C@@H]1O — result for “samples above LOQ”: 100% (human, plasma).
The cell viability of COc1cc2c(c(O)c1OC)C(=O)c1c(cc(C)c(O)c1OC)C2=O is reported as 53.9 ± 6.85% (HepaRG co-cultured with HK-2; MTT; 266.67 µM, 24 h; baseline: untreated control).
For CC(C)=CCc1cc2c(cc1O)O[C@H](c1ccc(O)cc1)CC2=O, “species difference in glucuronidation CLint” read about 20.1 fold (liver microsomes; seven species incl. human).
Cc1ccc(Sc2ccccc2N2CCNCC2)c(C)c1: “participants with TEAE” 0% (refers to: ALT increased; healthy adult women; oral, 5 mg daily, 12 days).
With Cc1nc(-c2cnc(NC(C)C)n(C)c2=O)ccc1Oc1ccnc(-c2cnn(C)c2)c1 the apparent clearance was 13.8 mL/min/kg (Beagle dog, male, plasma; oral, 10 mg/kg, crossover study, mean).
For CNC(=O)c1ccc(-c2cnc3ncc(Cc4ccc5ncccc5c4)n3n2)cc1F, “patients with adverse event” read 3% (refers to: Pruritus, all grades; cancer patients; oral, 600 mg twice daily, expansion cohort, any causality).
For O=C(O)C[C@H](O)C[C@H](O)/C=C/c1c(C2CC2)nc2ccccc2c1-c1ccc(F)cc1, the apoptotic cells was 1.13 ± 0.17 (COS-7; 10 µM, 24 h, 0.1% DMSO, unit not given; baseline: vehicle control).
The plasma concentration of O=S(=O)(O)Oc1ccc(CCO)cc1O is reported as 16.1 nM (human plasma; median).
With CC(C)n1c(/C=C/C(O)CC(O)CC(=O)O)c(-c2ccc(F)cc2)c2ccccc21 (stereo not drawn) the metabolic activity was 0.93 ± 0.06 (COS-7; WST-8; 6 µM, 24 h, 0.1% DMSO, unit not given; baseline: vehicle control).
With CNC(=O)c1cccc(-c2ccc(O[C@H]3O[C@H](CO)[C@@H](O)[C@H](O)[C@@H]3O)c(C)c2)c1 the AUC(0-all) was 23.2 ng·h/mL (male Sprague-Dawley rat, plasma; oral, 10 mg/kg, group mean).
With OCc1nc2ccc(NCc3ccc(C(F)(F)F)cc3)cc2[nH]1 the tissue/plasma ratio was 4.44 ± 0.2 (male Balb/c mice, lungs; oral, 10 mg/kg, 6 h; baseline: tissue over plasma).
For Cc1c2oc3c(C)ccc(C(=O)N[C@@H]4C(=O)N[C@H](C(C)C)C(=O)N5CCC[C@H]5C(=O)N(C)CC(=O)N(C)[C@@H](C(C)C)C(=O)O[C@@H]4C)c3nc-2c(C(=O)N[C@@H]2C(=O)N[C@H](C(C)C)C(=O)N3CCC[C@H]3C(=O)N(C)CC(=O)N(C)[C@@H](C(C)C)C(=O)O[C@@H]2C)c(N)c1=O, “median plasma concentration” read 9.8 µg/L (children with cancer, plasma; dose not given, 30 min).
For CCc1cc(C(=O)NC)c2nccc(N3CCc4c(cc(Cn5ccnc5)cc4-c4cn(C)nc4C(F)(F)F)C3=O)c2c1, “serum MCV change” read 3.06% (Sprague Dawley rats; oral, 50 mg/kg once daily, 7 days; baseline: vehicle).
The amount permeated of C[C@@H](O)[C@H]1C(=O)N2C(C(=O)O)=C(SCCN=CN)C[C@H]12 is reported as 2.22 nmol (starch gel membrane permeability; Gram-negative envelope surrogate; 200 µM, 30 min, pH 7.4).
CC(C)c1nc(CN(C)C(=O)N[C@@H](CCN2CCOCC2)C(=O)N[C@H](CC[C@H](Cc2ccccc2)NC(=O)OCc2cncs2)Cc2ccccc2)cs1 — result for “drug-related TEAE incidence”: 0% (refers to: Hallucinations; human; oral, 150 mg).
O=C(Nc1nc2cccc(-c3ccc(CN4CCS(=O)(=O)CC4)cc3)n2n1)C1CC1 — result for “treatment-emergent adverse events”: 0% (refers to: infections and infestations; human rheumatoid arthritis patients; oral, 200 mg once daily, 4 weeks, regardless of relatedness).
NC(=O)N1c2ccccc2C=Cc2ccccc21 — result for “GGT increase resolution time”: 17 days (human; concentration not given).

Repeated from above:
O=C(Nc1nc2cccc(-c3ccc(CN4CCS(=O)(=O)CC4)cc3)n2n1)C1CC1 — result for “treatment-emergent adverse events”: 0% (refers to: infections and infestations; human rheumatoid arthritis patients; oral, 200 mg once daily, 4 weeks, regardless of relatedness).
NC(=O)N1c2ccccc2C=Cc2ccccc21 — result for “GGT increase resolution time”: 17 days (human; concentration not given).
